Results gathered from unrelated publications.
Lines come from different studies, so protocols differ. ± marks the error that the study gave.
ACE2: Angiotensin-converting enzyme 2 (ACE2, Homo sapiens, UniProt Q9BYF1)
Adenosylmethionine-8-amino-7-oxononanoate aminotransferase: Adenosylmethionine-8-amino-7-oxononanoate aminotransferase (Mycobacterium tuberculosis, UniProt P9WQ81)

SMILES	target	assay	system	conditions	scale	endpoint	value
CC(C)C[C@H](NC(=O)[C@H](CCCNC(=N)N)NC(=O)[C@H](Cc1ccccc1)NC(=O)CN)C(=O)N[C@@H](CC(N)=O)C(=O)N[C@@H](CO)C(=O)N[C@@H](C)C(=O)N[C@@H](CO)C(=O)N[C@@H](CCCNC(=N)N)C(=O)N[C@H](C(=O)N[C@@H](C)C(=O)N[C@@H](Cc1c[nH]cn1)C(=O)NCC(=O)N[C@@H](Cc1ccc(O)cc1)C(N)=O)C(C)C	Allatotropin-related peptide receptor 1 (Aplysia californica, UniProt A0ABM0K100)	IP1 accumulation, agonist			relative to: compound over D2-ATRP	potency ratio	~20 fold
CCCCCn1cc(C(=O)c2ccc3ccccc3c2)c2ccccc21	Cannabinoid receptor 1 (CNR1, Homo sapiens, UniProt P21554)	Gαi1 engagement, agonist, BRET	HEK293T		relative to: reference agonist	Emax	111 ± 5%
Cc1cc(S(=O)(=O)N(C)CC(=O)Nc2ccn(C)c(=O)c2)c2[nH]ncc2c1	Dihydrolipoyl dehydrogenase (Mycobacterium tuberculosis, UniProt P9WHH9)	SPR				complex half-life	12 min
Nc1ncnc2c1ncn2C1OC(CSCCC(N)C(=O)O)C(O)C1O (stereo not drawn)	5'-methylthioadenosine/S-adenosylhomocysteine nucleosidase (Vibrio cholerae serotype O1, UniProt Q9KPI8)	substrate				Km	24 µM
CC(=O)N[C@H]1[C@@H](O)[C@H](O)[C@@H](CO)O[C@H]1O	N-acetylmannosamine kinase (nanK, Vibrio cholerae serotype O1, UniProt Q9KR61)	substrate, ADP-Glo kinase		together with: ATP 0.1 mM		Vmax	0.67 ± 0.02 µM min^–1
C[N+](C)(C)CCOC(N)=O	CHRNA7/glc-2 (Gallus gallus, UniProt P22770+Q17328)	binding		24 or 48 h, 37 °C		Hill coefficient	1.7 ± 0.13
CC[C@H](C)[C@H](NC(=O)CNC(=O)[C@@H](NC(=O)[C@@H](N)[C@@H](C)O)[C@@H](C)O)C(=O)NCC(=O)N[C@@H](Cc1ccc(O)cc1)C(=O)N[C@@H](CCC(N)=O)C(=O)N1CCC[C@H]1C(=O)N[C@@H](Cc1ccc(O)cc1)C(=O)N[C@@H](CCCNC(=N)N)C(=O)N[C@H](C(=O)N[C@H](C(N)=O)C(C)C)C(C)C	ACE2	binding		pH 8		kon	320 M⁻¹ s⁻¹
CC1=C[C@H]2c3c(O)cc(CCc4ccccc4)cc3OC(C)(C)[C@H]2CC1	Sodium-dependent dopamine transporter (SLC6A3, Homo sapiens, UniProt Q01959)			10 µM		binding inhibition	83%
CC(C)c1nc2cc(O)ccc2c(=O)n1-c1ccc(C#N)cc1	Transient receptor potential cation channel subfamily V member 1 (TRPV1, Homo sapiens, UniProt Q8NER1, A566S)	calcium influx, FLIPR			relative to: mutant over wild type	potency shift	7.1 fold
CCCCC(=N)NCc1ccc2[nH]c3c(c2c1)CC1(O)C2Cc4ccc(O)c5c4C1(CCN2CC1CC1)C3O5 (stereo not drawn)	Kappa-type opioid receptor (OPRK1, Homo sapiens, UniProt P41145)	[3H]diprenorphine binding			relative to: Ki δ over Ki κ	selectivity ratio	5
CCCCCCc1ccc(Oc2ccccc2Br)c(O)c1	Enoyl-[acyl-carrier-protein] reductase [NADH] (inhA, Mycobacterium tuberculosis, UniProt P9WGR1)	enzyme activity, inhibitor, progress curve analysis		20 °C		k5	0.28 min⁻¹
COC1OC2COC(c3ccccc3)OC2C(NC(=S)SCc2ccccc2)C1O (stereo not drawn)	Adenosylmethionine-8-amino-7-oxononanoate aminotransferase			100 µg/mL, together with: enzyme 2 µM		inhibition	> 60%
CC(C)C[C@H](NC(=O)OCc1ccccc1)C(=O)N[C@@H](C[C@@H]1CCNC1=O)C(O)S(=O)(=O)O (stereo partly drawn)	Replicase polyprotein 1ab, main protease (Human coronavirus OC43, UniProt P0C6X6)	thermal shift			higher = stronger binding	ΔTm	13.9 ± 0.81 °C
CCOC(=O)C1C(OC(c2ccc(Cl)cc2)c2ccc(Cl)cc2)CC2CCC1N2C (single isomer, unassigned)	rat central benzodiazepine site	binding, radioligand displacement		inactive if below 75% at 10000 nM, together with: [3H]flunitrazepam		Ki	inactive
CC(=O)Nc1ccc(/C=N/NC(=S)Nc2cccc3cccnc23)cc1	Adenosylmethionine-8-amino-7-oxononanoate aminotransferase			100 µg/mL, together with: enzyme 2 µM		inhibition	> 60%
CN1CCc2cc(Br)c(O)cc2C(c2ccc(NC(=O)CCOCCOCCOCCn3cc(COCCOCCOCCOCCC(=O)NCCc4c[nH]cn4)nn3)cc2)C1 (stereo not drawn)	D(1A) dopamine receptor (DRD1, Homo sapiens, UniProt P21728)	binding, association-competition		together with: GDA 120 nM		residence time	5 to 8 min
CC[C@H](C)[C@H](NC(=O)[C@H](CO)NC(=O)[C@H](Cc1ccc(O)cc1)NC(=O)[C@H](CC(=O)O)NC(=O)[C@H](CO)NC(=O)[C@@H](NC(=O)[C@H](Cc1ccccc1)NC(=O)[C@@H](NC(=O)CNC(=O)[C@@H]1CCCN1C(=O)[C@H](C)NC(=O)[C@@H](N)Cc1ccc(O)cc1)[C@@H](C)O)[C@@H](C)CC)C(=O)N[C@@H](C)C(=O)N[C@@H](CCSC)C(=O)N[C@@H](CC(=O)O)C(=O)N[C@@H](CCCCN)C(=O)N[C@H](C(=O)N[C@@H](Cc1c[nH]cn1)C(=O)N[C@@H](CCC(N)=O)C(=O)N[C@@H](CCC(N)=O)C(=O)N[C@@H](CC(=O)O)C(=O)N[C@@H](Cc1ccccc1)C(=O)N[C@H](C(=O)N[C@@H](CC(N)=O)C(=O)N[C@@H](Cc1c[nH]c2ccccc12)C(=O)N[C@@H](CC(C)C)C(=O)N[C@@H](CC(C)C)C(=O)N[C@@H](C)C(=O)N[C@@H](CCC(N)=O)C(=O)N[C@@H](CCCCN)C(=O)NCC(=O)N[C@@H](CCCCN)C(=O)N[C@@H](CCCCN)C(=O)N[C@@H](CC(N)=O)C(=O)N[C@@H](CC(=O)O)C(=O)N[C@@H](Cc1c[nH]c2ccccc12)C(=O)N[C@@H](CCCCN)C(=O)N[C@@H](Cc1c[nH]cn1)C(=O)N[C@@H](CC(N)=O)C(=O)N[C@H](C(=O)N[C@H](C(=O)N[C@@H](CCC(N)=O)C(=O)O)[C@@H](C)O)[C@@H](C)CC)C(C)C)[C@@H](C)CC	Gastric inhibitory polypeptide receptor (Mus musculus, UniProt Q0P543)		COS-7			Emax	71 ± 8%
CC(Cc1ccc(O)cc1)NCC(O)c1ccc(O)c(O)c1 (stereo not drawn)	Beta-2 adrenergic receptor (ADRB2, Homo sapiens, UniProt P07550)	β-arrestin recruitment over cAMP production, agonist			relative to: isoproterenol	efficacy ratio	~10
NC1=NN=Cc2ccccc2[O][V](=[O])[O]1.c1cnc2c(c1)ccc1cccnc12	Tyrosine-protein phosphatase non-receptor type 1 (PTPN1, Homo sapiens, UniProt P18031)				relative to: IC50 PTP1B over IC50 YopH	selectivity ratio	2.7
O=C1CC(=O)N(c2ccccc2)c2cc(Cl)ccc2N1	Gabrg2/Gabra2, with β3 subunit (Rattus norvegicus, UniProt P18508+P23576)	positive allosteric modulator, whole-cell patch clamp	HEK293	α2β3γ2 subunits, together with: GABA at EC10		Emax	253 ± 32%
CC(C)C[C@H](NC(=O)[C@@H]1CCCN1C(=O)[C@H](Cc1c[nH]c2ccccc12)NC(=O)[C@H](Cc1ccc(O)cc1)NC(=O)[C@@H](N)CO)C(=O)N[C@@H](CC(N)=O)C(=O)N[C@@H](CC(=O)O)C(=O)N[C@@H](Cc1ccc(O)cc1)C(=O)NCC(=O)N[C@@H](Cc1ccccc1)C(=O)N[C@@H](Cc1ccc(O)cc1)C(=O)N[C@H](C(N)=O)[C@@H](C)O	ACE2	binding		pH 8		koff	0.16 s⁻¹
CC(C)C[C@H](NC(=O)[C@H](CO)NC(=O)[C@H](CC(C)C)NC(=O)[C@H](CCC(N)=O)NC(=O)[C@H](CC(N)=O)NC(=O)[C@H](CCC(N)=O)NC(=O)[C@H](CC(=O)O)NC(=O)CCCCCNC(=O)c1ccc2c(c1)C(=O)OC21c2ccc(O)cc2Oc2cc(O)ccc21)C(=O)N[C@@H](Cc1ccccc1)C(=O)O	Beta sliding clamp (dnaN, Bacillus subtilis, UniProt P05649)			concentration not given, unit not given	relative to: Escherichia coli clamp	binding weakening	~5
C/C=C(\N)C(=O)CCCCC	CAI-1 autoinducer sensor kinase/phosphatase CqsS (cqsS, Vibrio cholerae serotype O1, UniProt Q9KM66)	bioluminescence, agonist	Vibrio cholerae		relative to: Ea-CAI-1 at 100%	EC50	100%
C=C(C)C1C2OC(=O)C1C1(O)CC3OC34C(=O)OC2C14C (stereo not drawn)	Rdl (Drosophila melanogaster, UniProt P25123, T305V)	GABA-induced current, antagonist, two-electrode voltage clamp	Xenopus oocytes	mutant receptor		Hill coefficient	0.85 ± 0.18
